Published values gathered from unrelated publications.
Numbered parts are unrelated; each lists some results of a single study. Changes are numbered by the printed parent chain.

Study 1 — target: CCNB1, cyclin fold, Cln2 fusion (human); method: yeast growth competition, sequencing; medium: yeast; notes: weak parent motif; baseline: not given; reading: higher = stronger binding
Parent: RBL1 docking peptide (human); GSAKRRLFGEDPP
For `GSAKRRLFGEPPP [D11P]`, “normalised enrichment score” read -0.916.
`GSAKRRLFGEDPA [P13A]`: “normalised enrichment score” 0.0994.
`GSAKRRLFGYDPP [E10Y]`: “normalised enrichment score” 0.347.
Under “normalised enrichment score”, `GSAKRRMFGEDPP [L7M]` is recorded as 0.22.
For `GSAKRRLFGEQPP [D11Q]`, “normalised enrichment score” read 0.59.
For `GSVKRRLFGEDPP [A3V]`, “normalised enrichment score” read 2.93.
Under “normalised enrichment score”, `GSAKRRVFGEDPP [L7V]` is recorded as 0.871.
For `GSNKRRLFGEDPP [A3N]`, “normalised enrichment score” read -0.319.
Under “normalised enrichment score”, `GSAKSRLFGEDPP [R5S]` is recorded as 1.15.
`GSAKRRLFGEVPP [D11V]` — result for “normalised enrichment score”: 0.493.
Under “normalised enrichment score”, `GTAKRRLFGEDPP [S2T]` is recorded as 0.535.
Under “normalised enrichment score”, `GSAKRRLFGEDFP [P12F]` is recorded as 0.649.
`GSAKRRLFMEDPP [G9M]` — result for “normalised enrichment score”: 0.452.
For `GSAKRLLFGEDPP [R6L]`, “normalised enrichment score” read -0.409.
`GFAKRRLFGEDPP [S2F]` — result for “normalised enrichment score”: 0.102.
`GYAKRRLFGEDPP [S2Y]`: “normalised enrichment score” 0.704.
Under “normalised enrichment score”, `GSAKRRLFIEDPP [G9I]` is recorded as 1.13.
`GSAKRRLFGEDPC [P13C]` — result for “normalised enrichment score”: 0.417.
`GSAKRRLFSEDPP [G9S]` — result for “normalised enrichment score”: 1.18.
For `GSAKRRLFGEDPR [P13R]`, “normalised enrichment score” read 0.287.
`GSAKRRLYGEDPP [F8Y]`: “normalised enrichment score” -0.0978.

Study 2 — method: protein-binding microarray; molecule type: double-stranded DNA, one strand shown; medium: in vitro; concentration: 2540 nM top; notes: 60-bp whole probe; with: salmon DNA 0.4 mg/ml; baseline: random background probes; reading: higher = stronger binding; shared flanks, not repeated: GCCTAGCAC … GTCTTGATTCGCTTGACGCTGCTG
Target: Interferon regulatory factor 3, full length, phosphomimetic (IRF3, Homo sapiens, UniProt Q14653, residues 1-427, S386D/S396D/S398D/S402D/T404D/S405D)
Residues (chain): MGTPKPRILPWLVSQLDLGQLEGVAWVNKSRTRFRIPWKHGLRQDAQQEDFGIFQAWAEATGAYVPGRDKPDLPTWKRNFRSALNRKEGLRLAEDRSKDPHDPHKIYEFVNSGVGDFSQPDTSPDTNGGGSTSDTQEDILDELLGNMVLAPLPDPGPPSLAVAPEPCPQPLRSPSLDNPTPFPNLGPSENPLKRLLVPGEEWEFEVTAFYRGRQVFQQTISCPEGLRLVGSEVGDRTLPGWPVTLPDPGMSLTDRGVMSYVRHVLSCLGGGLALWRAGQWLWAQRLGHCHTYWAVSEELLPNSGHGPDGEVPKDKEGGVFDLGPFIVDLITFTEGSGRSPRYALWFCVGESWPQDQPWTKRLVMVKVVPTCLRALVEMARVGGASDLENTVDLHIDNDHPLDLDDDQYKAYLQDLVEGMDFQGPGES
`GACGGTTTCGGTTCCGGCACGTGCTAG`: “fitted relative affinity” 10.3 z-score.
`TTAGGACTAGGTATCGGTTAGTGCTAG`: “fitted relative affinity” 1.3 z-score.
Under “fitted relative affinity”, `GAAGGTCTCCTACTGCTGACGTGCTAG` is recorded as 0.552 z-score.
For `GACGGAATCGGTTTCGGGACGTGCTAG`, “fitted relative affinity” read 4.47 z-score.
`TTGGGACTGCTTTTCCTTTAGTGCTAG`: “fitted relative affinity” 0.512 z-score.
`CGGGCTTTCCCGTCCAGGGCGTGCTAG`: “fitted relative affinity” 0.0167 z-score.
`GACGGTTTCCTTTTCCCGACGTGCTAG` — result for “fitted relative affinity”: 10.3 z-score.
For `GACGGACTGCTTCCCCTGACGTGCTAG`, “fitted relative affinity” read -0.275 z-score.
Under “fitted relative affinity”, `GACGGACTGAGTATCGAGACGTGCTAG` is recorded as -0.307 z-score.
`GAACTTTGGCCTCTAGGTTTGTGCTAG`: “fitted relative affinity” -0.716 z-score.
`GACGACCTGAGTTTCGAGACGTGCTAG` — result for “fitted relative affinity”: 0.978 z-score.
Under “fitted relative affinity”, `TCATCTCCAGGGTTTCTCACTGTGCTA` is recorded as 0.302 z-score.
For `GACTGTTTCGGTATCGGGACGTGCTAG`, “fitted relative affinity” read 7.46 z-score.
`ATCTCACTCTAATCTCACTCTGTGCTA`: “fitted relative affinity” 0.979 z-score.
`ACTCCTGTACATCTATGTAGGTGCTAG` — result for “fitted relative affinity”: 0.423 z-score.
`TCATGTGTGTGTATGTGACTGTGCTAG` — result for “fitted relative affinity”: -0.545 z-score.
Under “fitted relative affinity”, `ATAGATATGCCAAATCTGTGTGTGCTA` is recorded as 0.0547 z-score.
`AATTAATAACTCGTAGGATCGTGCTAG` — result for “fitted relative affinity”: 0.0496 z-score.
`TTAGGTTACGGGTTTCGGTTAGTGCTA`: “fitted relative affinity” 2.8 z-score.

Study 3 — method: protein binding microarray; molecule type: double-stranded DNA, one strand shown; medium: in vitro; concentration: not given; baseline: not given; reading: higher = stronger binding
Target: Histone acetyltransferase KAT6A, both winged helices, GST fusion (KAT6A, Homo sapiens, UniProt Q92794, residues 1-181)
Notes: 8-mer, flanks averaged, mean of 2 arrays, mostly near background
Construct (chain): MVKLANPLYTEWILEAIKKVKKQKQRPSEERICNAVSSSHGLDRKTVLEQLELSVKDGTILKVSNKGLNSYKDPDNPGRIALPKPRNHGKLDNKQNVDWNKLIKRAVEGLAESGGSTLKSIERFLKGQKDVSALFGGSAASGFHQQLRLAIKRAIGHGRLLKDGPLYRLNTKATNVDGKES
`AAGGATCG` gave an E-score of 0.0334.
The E-score of `ATCCCTCC` is reported as -0.142.
With `TATACTAA` the E-score was -0.248.
The E-score of `ACCGTGAG` is reported as 0.124.
With `TCAGGTCA` the E-score was -0.0811.
With `GGAACTCC` the E-score was 0.0177.
The E-score of `CTACGATA` is reported as -0.202.
`AATACCCC` has an E-score of 0.0123.
With `CCAGTTAA` the E-score was -0.068.
`CTGCTGGA` gave an E-score of -0.188.
With `CCGGGAGG` the E-score was 0.114.
`CGTTCAGC` gave an E-score of 0.0307.
For `GTCTGGTA`, the E-score was -0.208.
With `GCCGTACC` the E-score was 0.327.
`AGAGTCCA` gave an E-score of -0.195.
With `CAGTCTGA` the E-score was -0.166.
`GCCGGGAA` has an E-score of 0.168.
`AAAGTTGA` has an E-score of -0.0537.
`ATCCGAAA` has an E-score of 0.0616.

Study 4 — method: RNA Bind-n-Seq; molecule type: RNA; medium: in vitro; concentration: 365 nM; baseline: no-protein control; reading: higher = stronger binding
Target: RNA binding protein fox-1 homolog 2, RRM domain, GST-SBP tag (RBFOX2, Homo sapiens, UniProt O43251-10, residues 100-194)
Notes: natural RNA segment, single round, ends assumed
Shared flanks, not repeated: GGGAGUUCUACAGUCCGACGAUC … UGGAAUUCUCGGGUGCCAA
Residues (chain): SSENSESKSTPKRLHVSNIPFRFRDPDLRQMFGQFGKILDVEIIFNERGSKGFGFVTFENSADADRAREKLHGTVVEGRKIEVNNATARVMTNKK
For `UUGGGAAGCGUAGAGGCAGGGCCAUGUGCUCAGAACGGUGACAAUAAAGGACUGCCUUUUACUUGUUCCUCUAGUGUAGCAUCCCCUCCCUCUGUCCUUUUUAACCUUCG`, “RBNS enrichment (R)” read 0.91.
`GGGAGAGAGGGAUGGUUUCUGAGGGGUUCUGAAAGUAUGAUUCAAUGUGCAACAUACAGGUAGGUCUUCAGCAUAAGCUGAAAUAUAUGCAUGUAAAAACUUUGACAUCU`: “RBNS enrichment (R)” 3.06.
For `AACACCAACUGGAAAGGUACCCCGUCCCAGGGAAGCCUGCUAGGGAGAGGUUCUGUAGAAUCCGAGCCUAGCACCCCAAAGUCAUGCACCCAGUAUCCUCUUGUAUGACU`, “RBNS enrichment (R)” read 0.346.
`ACAGAGCCAUGCCCCGGCACCUCUGCCCUGUGUCUUUCAUACCUCUACAUGUCUGCUUGAGAUAUUUCCUCAGCCUGAAAGUUUCCCCAACCAUCUGCCAGAGAACUCCU`: “RBNS enrichment (R)” 1.56.
`CUGGCUCCCGCCCCACCUGCCCCUGGCGGCUUAUCCAAUGUCCCCACGGAGUCCGGUGUGGGGGGUUUGGUUCUAACUGUCCUGGUGAUGCCUCUCUGAGUGGAAAUCUU`: “RBNS enrichment (R)” 0.691.
`ACAUGUUGGUUUCACUCACCCAGAGUAAUUUUGUGAGCAUGCAUGUGCUUUUUAAUUUCUGCUUGAAUGUUUGUCCUGCUGUGUUGCAGCUUCUAAAGACAUUGUCACCG` — result for “RBNS enrichment (R)”: 4.57.
Under “RBNS enrichment (R)”, `UACUCAGGAGGCUGAGGCAGGAGAAUUGCUUGAACCCAGGAGGCGGAGGUUGCAGUGAGCCAGGAUUGUGCCAUUGCACUCCAGCCUGGGCAACAAGAACAAAACUCCAU` is recorded as 0.321.
`GUCUCUGACAGACAAAUCUAAGGAGUUGCCGUUAUACUGUUCUGGGGGUUUGCGGUUUUUCUGGGACAACAAGUUUGACCAUGCAAUGGUAGCUUUUCUGGACUGUGUGC` — result for “RBNS enrichment (R)”: 0.972.
